Published values of several laboratories.
Several values in a cell are separate wells, animals, samples, runs or records.
APC: Adenomatous polyposis coli protein (APC, Homo sapiens, UniProt P25054)
gag-pol integrase: Gag-Pol polyprotein, integrase (gag-pol, Human immunodeficiency virus 1, UniProt P12497)
MGLL: Monoglyceride lipase (MGLL, Homo sapiens, UniProt Q99685)
EPHX2: Bifunctional epoxide hydrolase 2 (EPHX2, Homo sapiens, UniProt P34913)
MAOB: Amine oxidase [flavin-containing] B (MAOB, Homo sapiens, UniProt P27338)
CDPK1: Calcium-dependent protein kinase 1 (CDPK1, Plasmodium falciparum, UniProt P62344)

For Cc1nn(C)c2nc(=O)n(C)c(=O)c-2[n+]1[O-], the IC50 was 6.55 µM (Protein disulfide-isomerase (P4HB, Homo sapiens, UniProt P07237); enzyme activity, inhibitor, absorbance).
With Cc1cc(Cl)ccc1OC(C)C(=O)Nc1cc(Cl)ccc1C(=O)O (centres unmarked) the IC50 was about 1 µM (Transient receptor potential cation channel subfamily M member 4 (TRPM4, Homo sapiens, UniProt Q8TD43); ion flux, inhibitor, fluorescence).
The IC50 of C=C(CC)C(=O)c1ccc(OCC(=O)O)c(Cl)c1Cl is reported as 1.1 µM (Glutathione S-transferase A1 (GSTA1, Homo sapiens, UniProt P08263); enzyme activity, inhibitor, CDNB-GSH conjugation, item: CDNB-GSH conjugate; pH 6.8, added: CDNB).
With CN(C)c1ccc(-c2ccc(Cn3cccc(O)c3=S)cc2)cc1 the IC50 was over 10 µM (Protein deacetylase HDAC6 (HDAC6, Homo sapiens, UniProt Q9UBN7); enzyme activity, inhibitor, SAMDI mass spectrometry).
COC(=O)/C=C/c1cc(O)ccc1O has an IC50 of over 10 µM (Proto-oncogene tyrosine-protein kinase Src (SRC, Homo sapiens, UniProt P12931); enzyme activity, inhibitor, ADP detection).
For Cc1ncc(Br)c(C(=O)N[C@@H](CCC(=O)O)C(=O)N[C@@H](Cc2ccc3ccccc3c2)C(=O)N[C@@H](CC(C)C)C(=O)NC2CC2c2ccccc2)n1 (some centres unmarked), the IC50 was 3.93 µM (APC; ligand displacement, FP).
For O=C(NNC(=O)c1ccc(CNS(=O)(=O)c2ccc(F)c(Cl)c2)cc1)c1ccccc1, the IC50 was 0.81 µM (Glutamate NMDA receptor; Grin1/Grin2a (Grin1/Grin2a, Rattus norvegicus, UniProt P35439+Q00959, V783T); ion current, two-electrode voltage clamp; oocytes).
C[C@@H]1O[C@@H](Oc2c(-c3ccc(O)cc3)oc3cc(O)cc(O)c3c2=O)[C@H](O[C@@H]2OC[C@@H](O)[C@H](O)[C@H]2O)[C@H](O)[C@H]1O has an IC50 of 74.7 µM and 74.6 µM (iunh (Leishmania donovani, UniProt Q8WQX2); enzyme activity, inhibitor, absorbance).
For Cc1ncc([N+](=O)[O-])n1CC(C)O (centres unmarked), the IC50 was over 500 µM (Cytochrome P450 2C9 (CYP2C9, Homo sapiens, UniProt P11712); enzyme activity, inhibitor; human liver microsomes; 30 min, added: diclofenac).
CC(C)Oc1ccc(-c2c[nH]cc2CN(C)CCO)cc1 gave an IC50 of over 10 µM (Protein arginine N-methyltransferase 8 (PRMT8, Homo sapiens, UniProt Q9NR22); enzyme activity, scintillation proximity; added: 3H-SAM).
O=C(ON1C(=O)CCC1=O)N1CC(N2CCN(C(=O)c3nccs3)CC2)C1 has an IC50 of 0.0275 µM (Monoglyceride lipase (Rattus norvegicus, UniProt Q8R431); enzyme activity, inhibitor; with preincubation).
With O=C(O)/C(O)=C/C(=O)c1cn(Cc2ccc(F)cc2)c2cc(Cl)c(Cl)cc2c1=O the IC50 was 34 µM (gag-pol integrase; 3'-processing, inhibitor, gel-based; added: Mg2+).
[Cl-].[Cl-].[Zn+2] has an IC50 of 135 µM (Voltage-gated hydrogen channel 1 (HVCN1, Homo sapiens, UniProt Q96D96, D185A/H193A); proton current, inhibitor, whole-cell voltage clamp; human cells; pH 6.5, test pulse 140 mV).
For CCOC(=O)/C(O)=C/C(=O)c1cn(Cc2ccc(F)cc2)c2c(F)cccc2c1=O, the IC50 was over 333 µM (gag-pol integrase; 3'-processing, inhibitor, gel-based; added: Mg2+).
COC(=O)CCO[C@@H]1CC(=O)[C@@]2(C)CC[C@@H]3c4ccc(OC)cc4CC[C@H]3[C@H]12 gave an IC50 of 2.2 to 5.1 µM (17-beta-hydroxysteroid dehydrogenase type 1 (HSD17B1, Homo sapiens, UniProt P14061); enzyme activity, inhibitor, radiometric).
The IC50 of COc1ccc2c(ccn2CC2CCN(C(=O)OC(C(F)(F)F)C(F)(F)F)CC2)c1 is reported as 0.66 µM (MGLL; enzyme activity, inhibitor).
C[C@]12CC3CC(Nc4c(Nc5ccc(CN6CCC[C@H](C(=O)NCCCCC(=O)NO)C6)cc5F)c(=O)c4=O)(C1)C[C@@](C)(C3)C2 has an IC50 of 0.0884 µM (EPHX2; enzyme activity, inhibitor, fluorescence).
For O=C(Nc1ccc(C(=O)Nc2ccc(C(=O)Nc3ccc(S(=O)(=O)O)c4cc(S(=O)(=O)O)cc(S(=O)(=O)O)c34)cc2)cc1)Nc1ccc(C(=O)Nc2ccc(C(=O)Nc3ccc(S(=O)(=O)O)c4cc(S(=O)(=O)O)cc(S(=O)(=O)O)c34)cc2)cc1, the IC50 was 2.4 µM (Ubiquitin-associated and SH3 domain-containing protein B (UBASH3B, Homo sapiens, UniProt Q8TF42); enzyme activity, inhibitor, fluorescence).
Cc1ccc(NC(=O)NC2(C(=O)N3CCOCC3)CCCCC2)cc1 has an IC50 of over 200 µM (Endoplasmic reticulum aminopeptidase 1, open conformation (ERAP1, Homo sapiens, UniProt Q9NZ08); enzyme activity, inhibitor, fluorogenic; partial inhibition, added: L-AMC substrate).
For O=C1CCOc2cc(OCc3ccc(C(F)(F)F)cc3)ccc21, the IC50 was 0.0038 µM (MAOB; enzyme activity, inhibitor, fluorescence).
For Cc1cc(C(=O)N2CCC[C@H](C(=O)NCCCCCCC(=O)NO)C2)ccc1NC(=O)N[C@@]12C[C@@H]3C[C@@](C)(C[C@@](C)(C3)C1)C2, the IC50 was 0.0003 µM (EPHX2; enzyme activity, inhibitor, fluorescence).
With O=C(Nc1cccc(-c2nnc(C3CCCCC3)o2)c1)c1cnccn1 the IC50 was 4.95 µM (α-amylase; enzyme activity, inhibitor).
For C[C@]12C[C@@H]3C[C@](C)(C1)C[C@@](NC(=O)Nc1ccc(CN4CCC[C@H](C(=O)NCCCCCC(=O)NO)C4)cc1F)(C3)C2, the IC50 was 0.0007 µM (EPHX2; enzyme activity, inhibitor, fluorescence).
With C[C@H](NC(=O)C[C@H](CC(=O)NC(C)(C)C)NC(=O)CCc1ccccc1)C(=O)NCc1cccc2ccccc12 the IC50 was over 100 µM (Proteasome component C5/PSMB5 (Homo sapiens, UniProt P20618+P28074); chymotrypsin-like activity, inhibitor; added: suc-LLVY-AMC).
Cc1cccc(C(=O)N[C@@H](CCC(=O)O)C(=O)N[C@@H](Cc2ccc3ccccc3c2)C(=O)N[C@@H](CC(C)C)C(=O)NC2CC2c2ccccc2)c1 (some centres unmarked) gave an IC50 of 40.6 µM (APC; ligand displacement, FP).
The IC50 of Nc1ncnc2c1ncn2[C@@H]1O[C@H](COP(=O)(O)OP(=O)(O)C(Cl)(Cl)P(=O)(O)O)[C@@H](O)[C@H]1O is reported as ~0.022 µM and 0.022 µM (Fibroblast growth factor receptor 2 (FGFR2, Homo sapiens, UniProt P21802); enzyme activity, inhibitor, radiometric).
CCCN(CCC)c1ccc(C=O)cc1 has an IC50 of 0.13 µM (Aldehyde dehydrogenase 1A1 (ALDH1A1, Homo sapiens, UniProt P00352); enzyme activity, inhibitor; pH 8.4).
O=C(Nc1cccc(-c2nnc(C3CCCCC3)o2)c1)c1ccc(Cl)cc1 has an IC50 of 6.22 µM (α-amylase; enzyme activity, inhibitor).
Nc1ccn([C@@H]2O[C@H](COP(=O)(O)OP(=O)(O)OP(=O)(O)O)[C@@H](O)C2(F)F)c(=O)n1 gave an IC50 of over 2000 µM (POLA1 (Bos taurus, UniProt A0AAA9THK8); enzyme activity, inhibitor, radiometric).
For CC1(C)c2cc(CC(=O)c3ccc(O)cc3O)c(O)cc2OC1CO (centres unmarked), the IC50 was over 20 µM (Transcription factor p65 (RELA, Homo sapiens, UniProt Q04206); NF-κB activity, inhibitor).
For CC12CC3CC(C)(C1)CC(Nc1c(Nc4ccc(C(=O)N5CCC[C@H](C(=O)NCCCC(=O)NO)C5)cc4F)c(=O)c1=O)(C3)C2, the IC50 was 0.269 µM (EPHX2; enzyme activity, inhibitor, fluorescence).
CCOCCOc1ccc2cc(-c3cn(CC4CCN(C(C)=O)CC4)c4ncnc(N)c34)ccc2c1 has an IC50 of over 2 µM (CDPK1; enzyme activity, inhibitor).
For OC1CCCc2cc(OCCOc3ccccc3)ccc21 (centres unmarked), the IC50 was 0.068 µM (MAOB; enzyme activity, inhibitor, fluorescence).
With O=C(O)c1cc2cc(-c3ccccc3)ccc2c(I)c1O the IC50 was 4.95 µM (Glutamate NMDA receptor; Grin1/Grin2c (Rattus norvegicus, UniProt P35439+Q00961); ion current, two-electrode voltage clamp; oocytes).
O=C(OC(C(F)(F)F)C(F)(F)F)N1CCC(Cn2ccc3c(F)cccc32)CC1 has an IC50 of 0.5 µM (MGLL; enzyme activity, inhibitor).
COc1ccc(-c2cn(CC3CCN(C(C)=O)CC3)c3ncnc(N)c23)cc1OC gave an IC50 of over 2 µM (CDPK1; enzyme activity, inhibitor).
OC1(c2ccc(Cl)c(C(F)(F)F)c2)CCN(CCCC(c2ccc(F)cc2)c2ccc(F)cc2)CC1 gave an IC50 of 0.097 µM (Voltage-dependent T-type calcium channel subunit alpha-1I (CACNA1I, Homo sapiens, UniProt Q9P0X4); inhibitor, FLIPR calcium; HEK293 with GCaMP6s-CAAX, Kir2.3; added: KCl at EC90).
C[C@@H](CNCc1ccccc1)N1C[C@H](CCCNC(=N)N)N(CCc2cccc(F)c2)C1=S has an IC50 of over 10 µM (Kappa-type opioid receptor (OPRK1, Homo sapiens, UniProt P41145); receptor activation, antagonist, FLIPR).
CC(C)NCc1ccc(C[C@@H]2NC(=O)[C@H](N(C)C(=O)c3ccc4ccccc4c3)NC(=O)[C@H](Cc3ccccc3)NC(=O)[C@@H](N)CSSC[C@@H](C(N)=O)NC(=O)[C@H](Cc3ccc(O)cc3)NC2=O)cc1 has an IC50 of 0.631 µM (Somatostatin receptor type 1 (SSTR1, Homo sapiens, UniProt P30872); ligand displacement, radioligand; cell membranes).
For C=C(C)CCOP(=O)(O)OP(=O)(O)OP(=O)(O)OC[C@H]1O[C@@H](n2cnc3c(N)ncnc32)[C@H](O)[C@@H]1O, the IC50 was 3.4 µM (Serine/threonine-protein kinase ULK3 (ULK3, Homo sapiens, UniProt Q6PHR2); enzyme activity, inhibitor, HotSpot kinase; added: ATP 1 µM).
O=C(Nc1cc(F)c(Cl)c(F)c1)c1cc(S(=O)(=O)N2CCOCC2)c(Cl)cc1Cl gave an IC50 of over 100 µM (Lysophosphatidic acid receptor 2 (LPAR2, Homo sapiens, UniProt Q9HBW0); Ca2+ mobilization, antagonist; MEF; added: LPA at EC50).

A few entries again:
O=C(Nc1cccc(-c2nnc(C3CCCCC3)o2)c1)c1ccc(Cl)cc1 has an IC50 of 6.22 µM (α-amylase; enzyme activity, inhibitor).
For CC12CC3CC(C)(C1)CC(Nc1c(Nc4ccc(C(=O)N5CCC[C@H](C(=O)NCCCC(=O)NO)C5)cc4F)c(=O)c1=O)(C3)C2, the IC50 was 0.269 µM (EPHX2; enzyme activity, inhibitor, fluorescence).
C[C@]12CC3CC(Nc4c(Nc5ccc(CN6CCC[C@H](C(=O)NCCCCC(=O)NO)C6)cc5F)c(=O)c4=O)(C1)C[C@@](C)(C3)C2 has an IC50 of 0.0884 µM (EPHX2; enzyme activity, inhibitor, fluorescence).
Cc1ccc(NC(=O)NC2(C(=O)N3CCOCC3)CCCCC2)cc1 has an IC50 of over 200 µM (Endoplasmic reticulum aminopeptidase 1, open conformation (ERAP1, Homo sapiens, UniProt Q9NZ08); enzyme activity, inhibitor, fluorogenic; partial inhibition, added: L-AMC substrate).
C[C@@H](CNCc1ccccc1)N1C[C@H](CCCNC(=N)N)N(CCc2cccc(F)c2)C1=S has an IC50 of over 10 µM (Kappa-type opioid receptor (OPRK1, Homo sapiens, UniProt P41145); receptor activation, antagonist, FLIPR).
Nc1ccn([C@@H]2O[C@H](COP(=O)(O)OP(=O)(O)OP(=O)(O)O)[C@@H](O)C2(F)F)c(=O)n1 gave an IC50 of over 2000 µM (POLA1 (Bos taurus, UniProt A0AAA9THK8); enzyme activity, inhibitor, radiometric).
